Assay results collected from several papers.
Each numbered part is a random draw from the data of one study; scales do not carry over between parts. Values joined by “and” are separate records of one study, mostly repeats; a detail may differ.
UniProt Q86UE8, sequence (whole entry, looked up): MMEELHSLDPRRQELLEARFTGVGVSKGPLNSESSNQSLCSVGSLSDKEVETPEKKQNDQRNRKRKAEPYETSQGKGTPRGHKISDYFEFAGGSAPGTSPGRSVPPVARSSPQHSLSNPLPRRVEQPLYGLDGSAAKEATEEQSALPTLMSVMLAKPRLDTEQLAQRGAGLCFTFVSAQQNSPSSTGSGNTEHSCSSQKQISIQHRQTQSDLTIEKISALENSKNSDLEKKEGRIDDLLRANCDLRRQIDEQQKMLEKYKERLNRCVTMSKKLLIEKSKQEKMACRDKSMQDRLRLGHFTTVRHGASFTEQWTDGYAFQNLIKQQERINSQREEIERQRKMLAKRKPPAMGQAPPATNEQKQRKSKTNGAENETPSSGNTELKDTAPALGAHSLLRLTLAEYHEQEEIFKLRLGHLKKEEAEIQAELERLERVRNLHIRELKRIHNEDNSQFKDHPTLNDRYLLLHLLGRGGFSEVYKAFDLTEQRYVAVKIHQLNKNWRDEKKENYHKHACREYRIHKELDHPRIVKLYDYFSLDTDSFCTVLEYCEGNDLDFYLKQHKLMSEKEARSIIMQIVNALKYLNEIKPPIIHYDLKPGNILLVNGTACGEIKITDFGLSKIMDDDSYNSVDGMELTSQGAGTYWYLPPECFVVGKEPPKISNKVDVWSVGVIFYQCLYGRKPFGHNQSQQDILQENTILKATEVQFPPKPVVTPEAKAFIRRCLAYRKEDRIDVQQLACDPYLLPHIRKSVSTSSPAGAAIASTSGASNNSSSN
UniProt Q8WXR4, sequence (whole entry, looked up): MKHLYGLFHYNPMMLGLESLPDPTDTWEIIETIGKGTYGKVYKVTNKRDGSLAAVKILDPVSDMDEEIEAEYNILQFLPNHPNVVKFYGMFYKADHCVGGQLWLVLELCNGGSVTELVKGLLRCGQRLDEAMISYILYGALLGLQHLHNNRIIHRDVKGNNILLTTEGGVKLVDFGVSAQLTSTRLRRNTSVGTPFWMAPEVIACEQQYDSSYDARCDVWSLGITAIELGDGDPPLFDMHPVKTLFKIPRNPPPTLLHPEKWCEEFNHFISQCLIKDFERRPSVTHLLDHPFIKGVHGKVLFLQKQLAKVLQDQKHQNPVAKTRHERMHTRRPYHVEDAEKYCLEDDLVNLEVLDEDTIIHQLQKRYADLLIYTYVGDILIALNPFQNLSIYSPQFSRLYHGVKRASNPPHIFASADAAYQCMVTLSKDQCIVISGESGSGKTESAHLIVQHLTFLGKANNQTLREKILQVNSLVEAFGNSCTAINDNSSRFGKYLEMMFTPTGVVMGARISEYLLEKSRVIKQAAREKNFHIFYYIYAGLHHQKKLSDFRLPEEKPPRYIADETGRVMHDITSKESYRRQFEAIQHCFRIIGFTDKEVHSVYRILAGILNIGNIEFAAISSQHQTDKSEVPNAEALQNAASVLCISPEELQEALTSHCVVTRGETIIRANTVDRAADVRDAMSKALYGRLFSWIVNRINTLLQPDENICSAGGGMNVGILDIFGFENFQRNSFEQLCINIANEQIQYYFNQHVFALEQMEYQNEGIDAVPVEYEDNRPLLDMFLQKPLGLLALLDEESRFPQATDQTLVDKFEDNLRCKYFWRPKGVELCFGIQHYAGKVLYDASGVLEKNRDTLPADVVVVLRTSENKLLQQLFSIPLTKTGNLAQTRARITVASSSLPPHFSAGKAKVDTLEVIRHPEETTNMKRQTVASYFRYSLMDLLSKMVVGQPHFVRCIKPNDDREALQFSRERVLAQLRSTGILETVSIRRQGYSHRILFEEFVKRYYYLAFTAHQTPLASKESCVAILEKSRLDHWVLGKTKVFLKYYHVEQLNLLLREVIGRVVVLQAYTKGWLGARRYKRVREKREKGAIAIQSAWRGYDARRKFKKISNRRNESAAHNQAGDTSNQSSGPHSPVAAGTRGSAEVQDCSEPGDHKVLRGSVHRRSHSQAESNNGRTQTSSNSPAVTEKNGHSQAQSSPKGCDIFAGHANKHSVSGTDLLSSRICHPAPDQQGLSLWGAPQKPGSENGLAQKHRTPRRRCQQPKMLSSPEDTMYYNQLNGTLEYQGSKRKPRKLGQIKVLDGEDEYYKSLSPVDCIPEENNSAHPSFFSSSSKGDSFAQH
UniProt Q9UEE5, sequence (whole entry, looked up): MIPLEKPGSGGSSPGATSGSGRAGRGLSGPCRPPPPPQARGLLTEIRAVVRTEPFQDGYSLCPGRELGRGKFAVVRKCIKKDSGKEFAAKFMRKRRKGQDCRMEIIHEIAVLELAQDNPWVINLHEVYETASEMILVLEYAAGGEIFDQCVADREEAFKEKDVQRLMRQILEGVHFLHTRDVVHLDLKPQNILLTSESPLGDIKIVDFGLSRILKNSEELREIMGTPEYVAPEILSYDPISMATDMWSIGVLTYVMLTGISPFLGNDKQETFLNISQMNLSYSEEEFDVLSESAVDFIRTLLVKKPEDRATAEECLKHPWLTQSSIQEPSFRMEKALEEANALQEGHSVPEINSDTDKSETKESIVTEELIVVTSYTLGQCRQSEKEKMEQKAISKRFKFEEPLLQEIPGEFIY
UniProt P50750, sequence (whole entry, looked up): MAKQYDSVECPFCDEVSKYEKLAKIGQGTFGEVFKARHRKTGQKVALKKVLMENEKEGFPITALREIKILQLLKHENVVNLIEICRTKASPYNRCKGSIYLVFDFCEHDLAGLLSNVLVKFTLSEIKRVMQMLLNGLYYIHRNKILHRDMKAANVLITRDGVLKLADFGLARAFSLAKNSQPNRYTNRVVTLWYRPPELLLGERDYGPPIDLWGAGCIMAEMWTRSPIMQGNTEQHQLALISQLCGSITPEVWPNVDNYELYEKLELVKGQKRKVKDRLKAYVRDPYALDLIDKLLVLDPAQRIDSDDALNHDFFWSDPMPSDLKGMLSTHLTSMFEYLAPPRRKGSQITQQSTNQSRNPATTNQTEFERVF
UniProt Q16539, sequence (whole entry, looked up): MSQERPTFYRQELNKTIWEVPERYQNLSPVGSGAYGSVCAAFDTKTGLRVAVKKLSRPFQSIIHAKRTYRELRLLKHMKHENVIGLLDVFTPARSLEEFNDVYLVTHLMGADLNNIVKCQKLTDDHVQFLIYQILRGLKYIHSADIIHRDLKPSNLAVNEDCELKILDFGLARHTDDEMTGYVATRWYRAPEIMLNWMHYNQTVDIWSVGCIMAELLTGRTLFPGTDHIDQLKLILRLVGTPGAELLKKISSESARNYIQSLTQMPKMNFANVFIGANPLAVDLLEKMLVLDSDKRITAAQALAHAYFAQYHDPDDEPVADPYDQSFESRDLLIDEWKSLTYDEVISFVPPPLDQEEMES
UniProt Q13464, sequence (whole entry, looked up): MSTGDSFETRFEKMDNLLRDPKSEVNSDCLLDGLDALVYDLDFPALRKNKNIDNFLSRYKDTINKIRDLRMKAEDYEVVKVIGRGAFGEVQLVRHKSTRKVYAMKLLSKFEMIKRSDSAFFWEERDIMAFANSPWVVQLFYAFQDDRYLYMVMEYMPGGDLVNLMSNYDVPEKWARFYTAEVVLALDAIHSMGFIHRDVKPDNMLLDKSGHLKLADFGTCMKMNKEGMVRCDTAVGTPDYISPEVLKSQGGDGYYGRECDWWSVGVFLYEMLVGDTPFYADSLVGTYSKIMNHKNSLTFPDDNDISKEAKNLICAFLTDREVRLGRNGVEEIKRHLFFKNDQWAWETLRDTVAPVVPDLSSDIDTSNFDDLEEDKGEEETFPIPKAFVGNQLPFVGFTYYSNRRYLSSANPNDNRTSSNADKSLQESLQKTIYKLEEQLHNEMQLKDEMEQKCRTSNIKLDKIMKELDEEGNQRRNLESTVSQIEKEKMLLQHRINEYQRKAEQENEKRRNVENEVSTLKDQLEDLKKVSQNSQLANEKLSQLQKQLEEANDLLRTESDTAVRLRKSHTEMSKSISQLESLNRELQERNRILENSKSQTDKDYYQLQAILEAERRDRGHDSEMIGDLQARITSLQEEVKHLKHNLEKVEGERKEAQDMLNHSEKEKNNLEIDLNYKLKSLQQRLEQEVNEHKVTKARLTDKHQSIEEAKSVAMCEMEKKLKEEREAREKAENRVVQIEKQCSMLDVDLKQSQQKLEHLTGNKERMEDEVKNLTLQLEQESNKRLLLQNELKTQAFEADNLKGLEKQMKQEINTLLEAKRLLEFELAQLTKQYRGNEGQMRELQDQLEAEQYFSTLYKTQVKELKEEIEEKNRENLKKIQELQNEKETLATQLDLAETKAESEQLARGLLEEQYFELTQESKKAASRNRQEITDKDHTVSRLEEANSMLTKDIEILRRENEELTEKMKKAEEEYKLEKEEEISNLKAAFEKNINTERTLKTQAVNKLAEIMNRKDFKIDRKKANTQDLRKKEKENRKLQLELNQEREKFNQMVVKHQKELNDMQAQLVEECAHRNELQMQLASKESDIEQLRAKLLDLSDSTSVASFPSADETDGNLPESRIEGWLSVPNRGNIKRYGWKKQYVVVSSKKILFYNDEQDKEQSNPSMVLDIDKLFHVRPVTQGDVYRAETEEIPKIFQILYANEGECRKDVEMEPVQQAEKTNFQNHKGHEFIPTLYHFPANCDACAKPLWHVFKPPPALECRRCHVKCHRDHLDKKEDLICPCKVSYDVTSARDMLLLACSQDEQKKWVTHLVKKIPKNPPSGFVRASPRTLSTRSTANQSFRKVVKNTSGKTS
UniProt Q9NY57, sequence (whole entry, looked up): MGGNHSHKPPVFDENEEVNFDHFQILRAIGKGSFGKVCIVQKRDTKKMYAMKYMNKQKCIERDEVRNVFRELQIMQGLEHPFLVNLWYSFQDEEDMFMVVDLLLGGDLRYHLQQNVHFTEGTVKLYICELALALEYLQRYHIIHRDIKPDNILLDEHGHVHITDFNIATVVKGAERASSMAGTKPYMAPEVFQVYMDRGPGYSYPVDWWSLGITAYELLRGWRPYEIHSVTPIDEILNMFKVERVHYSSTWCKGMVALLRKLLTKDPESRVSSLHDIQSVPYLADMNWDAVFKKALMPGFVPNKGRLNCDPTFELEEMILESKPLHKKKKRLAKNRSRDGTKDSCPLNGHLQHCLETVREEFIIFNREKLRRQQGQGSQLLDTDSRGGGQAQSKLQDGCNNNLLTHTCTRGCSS

Set 1 — measurement: inhibition
SMILES: COc1cc(C(=O)N2CCC(N3CCN(C)CC3)CC2)ccc1Nc1ncc2c(n1)N(C)c1ccccc1C(=O)N2C
target or system = PIP4K2C (mouse); test = KiNativ ADP probe; test system = mouse brain tissue; conditions = 0.1 µM, ATP site probe; result = -6.7%
target or system = RSKL1 domain 1 (mouse); test = probe labelling, inhibitor, KiNativ ActivX ATP probe; test system = mouse brain lysate; conditions = 1 µM; result = 5.8%
target or system = BRSK2 (mouse); test = probe labelling, KiNativ ATP probe; test system = mouse brain lysate; conditions = 0.1 µM, LYS2 labelled site; result = -0.5%
target or system = CDK5 (mouse); test = probe labelling, KiNativ, refers to: DLkPQNLLINR peptide, LYS2 site; test system = brain tissue lysate (mouse); conditions = 1 µM, with: ADP acyl-phosphate probe; result = 7.4%
target or system = human PBMC; test = probe labeling, inhibitor, KiNativ profiling, refers to: DVkPSNVLINK; test system = cell lysate; conditions = concentration not given, LYS2 site, with: ATP acyl-phosphate probe; result = -7%
target or system = MST3 (mouse); test = probe labelling, KiNativ ADP probe; test system = mouse brain lysate; conditions = 1 µM, LYS1 labelled site; result = -29.1%
target or system = mouse mTOR; test = probe labelling, KiNativ ATP probe; test system = mouse brain lysate; conditions = 0.1 µM, ATP site; result = 1%
target or system = NDR2 (mouse); test = probe labelling, KiNativ, refers to: DTGHIYAMkILR peptide, LYS1 site; test system = brain tissue lysate (mouse); conditions = 1 µM, with: ADP acyl-phosphate probe; result = -0.4%
target or system = Dual specificity mitogen-activated protein kinase kinase 7 (Map2k7, Mus musculus, UniProt Q8CE90); test = probe labelling, KiNativ, refers to: DVkPSNILLDER peptide, Lys2 site; test system = brain tissue lysate (mouse); conditions = 0.1 µM, with: ATP acyl-phosphate probe; result = -9.6%
target or system = SRPK1/SRPK2 (mouse); test = probe labelling, inhibitor, KiNativ ActivX ADP probe; test system = mouse brain lysate; conditions = 1 µM; result = 11.3%

Set 2 — read-out: cell-free assay; technique: competition with immobilised ligand; tested at: 1 µM; measurement: remaining binding
SMILES: CC(=O)Nc1c(C(C)=O)c(=O)n(C)c2nc(-c3ccc(Cl)cc3Cl)c(-c3ccc(Cl)cc3)cc12
target = STK32B (Homo sapiens, UniProt Q9NY57); result = 100%
target = PRKCI (Homo sapiens, UniProt P41743); result = 100%
target = RIOK1 (Homo sapiens, UniProt Q9BRS2); result = 100%
target = ZAP70 (Homo sapiens, UniProt P43403); result = 100%
target = STK17A (Homo sapiens, UniProt Q9UEE5); result = 100%
target = TLK2 (Homo sapiens, UniProt Q86UE8); result = 100%
target = Tyrosine-protein kinase ABL1, phosphorylated (ABL1, Homo sapiens, UniProt P00519, H396P); result = 100%

Set 3 — cell line: mouse MPNST tumor cells; technique: high-content nuclear imaging; refers to: cell number; tested at: 10 µM; time: 12 h; setting: mean of 2 replicates; baseline: plate mean; reading: higher = more cells; measurement: nuclei count
Structure (SMILES) = O=C(c1ccc(OCCN2CCCCC2)cc1)c1c(-c2ccc(O)cc2)sc2cc(O)ccc12; result = -3.14 z-score and -2.19 z-score
Structure (SMILES) = CCOC(=O)Nc1cc(-c2ccc(C)c(NS(C)(=O)=O)c2)nn2c(C)nnc12; result = -2.8 z-score
Structure (SMILES) = COc1ccc(N2CCN(C(=O)c3cc4c(s3)-c3ccccc3S(=O)(=O)C4)CC2)cc1; result = 2.38 z-score
Structure (SMILES) = Cc1ccc(NC(=O)c2cccc(C(C)(C)C#N)c2)cc1Nc1ccc2ncn(C)c(=O)c2c1; result = 1.92 z-score
Structure (SMILES) = Cc1ccnc2c1NC(=O)c1cccnc1N2C1CC1; result = 0.442 z-score
Structure (SMILES) = Nc1cccc(CNC(=O)c2ccc(Oc3ccc(OCc4cccc(F)c4)cc3)nc2)c1; result = 2.52 z-score
Structure (SMILES) = CNC[C@H](O)c1ccc(O)c(O)c1; result = 0.169 z-score

Set 4 — read-out: enzyme activity; mode: inhibitor; tested at: 0.5 µM; baseline: control; measurement: remaining activity
Compound: CCCNC(=O)Nc1ccc(Oc2ncnc3cc(OC)c(OC)cc23)cc1Cl
target = Cyclin-dependent kinase 9, with cyclin K (CDK9, Homo sapiens, UniProt P50750); result = 103%
target = CAMK4 (Homo sapiens, UniProt Q16566); result = 99.1%
target = Cyclin-dependent kinase 1, with cyclin A (CDK1, Homo sapiens, UniProt P06493); result = 97.7%
target = MET (Homo sapiens, UniProt P08581); result = 73.6%
target = CLK3 (Homo sapiens, UniProt P49761); result = 98.8%
target = PAK3 (Homo sapiens, UniProt O75914); result = 94.7%
target = TLK2 (Homo sapiens, UniProt Q86UE8); result = 99.5%
target = MAP2K1 (Homo sapiens, UniProt Q02750); result = 99.2%
target = PNCK (Homo sapiens, UniProt Q6P2M8); result = 95.4%
target = Myosin-IIIb (MYO3B, Homo sapiens, UniProt Q8WXR4); result = 76.2%
target = ROCK1 (Homo sapiens, UniProt Q13464); result = 99.7%
target = MAPK14 (Homo sapiens, UniProt Q16539); result = 122%
target = RPS6KA4 (Homo sapiens, UniProt O75676); result = 98.5%
target = CLK4 (Homo sapiens, UniProt Q9HAZ1); result = 94.2%
